# Published values gathered from unrelated publications.
# Compare with care: the assays were run in different laboratories. Values joined by “and” are separate records of one study, mostly repeats; a detail may differ. ± marks the error that the study gave.
# HTR5A: 5-hydroxytryptamine receptor 5A (HTR5A, Homo sapiens, UniProt P47898)
# UniProt P47898, sequence (whole entry, looked up): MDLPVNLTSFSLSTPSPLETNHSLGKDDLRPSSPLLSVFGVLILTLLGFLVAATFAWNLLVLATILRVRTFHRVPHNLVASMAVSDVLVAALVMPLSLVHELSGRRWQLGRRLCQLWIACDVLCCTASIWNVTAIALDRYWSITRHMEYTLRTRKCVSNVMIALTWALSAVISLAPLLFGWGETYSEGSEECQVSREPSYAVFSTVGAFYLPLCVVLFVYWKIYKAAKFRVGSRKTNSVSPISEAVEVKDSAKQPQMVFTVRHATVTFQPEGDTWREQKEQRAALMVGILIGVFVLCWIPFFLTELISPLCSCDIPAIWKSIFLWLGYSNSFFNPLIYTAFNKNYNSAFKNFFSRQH
# AMY2: Pancreatic alpha-amylase (AMY2, Sus scrofa, UniProt P00690)
# UniProt P00690, sequence (whole entry, looked up): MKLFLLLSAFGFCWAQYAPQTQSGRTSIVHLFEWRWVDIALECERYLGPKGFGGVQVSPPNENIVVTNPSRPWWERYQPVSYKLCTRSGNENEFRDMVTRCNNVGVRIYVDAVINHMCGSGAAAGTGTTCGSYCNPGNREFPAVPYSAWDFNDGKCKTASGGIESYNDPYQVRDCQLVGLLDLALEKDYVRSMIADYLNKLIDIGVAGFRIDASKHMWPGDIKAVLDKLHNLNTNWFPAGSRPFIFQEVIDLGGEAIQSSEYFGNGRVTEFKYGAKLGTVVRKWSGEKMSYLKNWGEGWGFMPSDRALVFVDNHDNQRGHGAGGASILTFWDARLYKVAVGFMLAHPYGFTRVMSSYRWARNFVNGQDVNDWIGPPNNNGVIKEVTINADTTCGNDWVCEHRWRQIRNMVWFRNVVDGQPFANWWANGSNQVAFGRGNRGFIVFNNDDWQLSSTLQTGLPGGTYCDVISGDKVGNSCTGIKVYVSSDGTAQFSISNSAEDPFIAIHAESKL
# HDAC11: Histone deacetylase 11 (HDAC11, Homo sapiens, UniProt Q96DB2)
# UniProt Q96DB2, sequence (whole entry, looked up): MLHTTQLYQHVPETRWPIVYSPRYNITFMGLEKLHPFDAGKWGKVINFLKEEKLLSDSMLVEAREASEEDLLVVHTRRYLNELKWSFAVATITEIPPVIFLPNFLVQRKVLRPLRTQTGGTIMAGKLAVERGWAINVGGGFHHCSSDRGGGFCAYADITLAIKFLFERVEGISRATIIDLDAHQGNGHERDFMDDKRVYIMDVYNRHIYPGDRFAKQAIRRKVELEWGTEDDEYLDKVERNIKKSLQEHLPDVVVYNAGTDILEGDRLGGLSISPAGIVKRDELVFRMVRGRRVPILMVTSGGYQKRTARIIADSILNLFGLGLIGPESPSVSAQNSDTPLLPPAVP
# DRD4: D(4) dopamine receptor (DRD4, Homo sapiens, UniProt P21917)
# UniProt P21917, sequence (whole entry, looked up): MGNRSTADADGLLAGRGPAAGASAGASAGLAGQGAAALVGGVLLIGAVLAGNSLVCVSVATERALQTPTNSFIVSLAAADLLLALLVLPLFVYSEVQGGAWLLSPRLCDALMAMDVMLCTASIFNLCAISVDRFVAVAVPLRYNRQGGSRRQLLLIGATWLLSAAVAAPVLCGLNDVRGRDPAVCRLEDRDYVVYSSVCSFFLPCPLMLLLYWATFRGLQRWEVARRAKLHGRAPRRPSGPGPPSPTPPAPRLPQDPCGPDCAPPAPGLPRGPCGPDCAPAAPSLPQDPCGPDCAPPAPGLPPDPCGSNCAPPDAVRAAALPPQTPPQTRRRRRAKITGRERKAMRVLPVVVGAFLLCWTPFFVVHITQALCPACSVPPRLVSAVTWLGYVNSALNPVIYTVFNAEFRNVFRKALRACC
# HTR2B: 5-hydroxytryptamine receptor 2B (HTR2B, Homo sapiens, UniProt P41595)
# UniProt P41595, sequence (whole entry, looked up): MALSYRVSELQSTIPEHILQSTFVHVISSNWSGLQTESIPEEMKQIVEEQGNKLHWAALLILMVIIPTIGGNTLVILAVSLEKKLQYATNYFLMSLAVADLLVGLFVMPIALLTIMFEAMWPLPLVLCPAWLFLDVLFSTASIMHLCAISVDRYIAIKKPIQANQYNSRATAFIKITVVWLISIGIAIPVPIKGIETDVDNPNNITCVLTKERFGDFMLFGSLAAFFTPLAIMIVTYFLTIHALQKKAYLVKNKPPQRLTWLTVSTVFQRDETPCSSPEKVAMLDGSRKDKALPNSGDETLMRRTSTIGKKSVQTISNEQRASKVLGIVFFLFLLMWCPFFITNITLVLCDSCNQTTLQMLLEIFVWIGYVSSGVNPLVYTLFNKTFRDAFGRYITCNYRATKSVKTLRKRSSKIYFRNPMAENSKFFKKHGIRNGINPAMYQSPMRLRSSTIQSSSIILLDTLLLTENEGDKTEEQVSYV
# SCN5A: Sodium channel protein type 5 subunit alpha (SCN5A, Homo sapiens, UniProt Q14524)
# UniProt Q8IWT6, sequence (whole entry, unmodified, looked up): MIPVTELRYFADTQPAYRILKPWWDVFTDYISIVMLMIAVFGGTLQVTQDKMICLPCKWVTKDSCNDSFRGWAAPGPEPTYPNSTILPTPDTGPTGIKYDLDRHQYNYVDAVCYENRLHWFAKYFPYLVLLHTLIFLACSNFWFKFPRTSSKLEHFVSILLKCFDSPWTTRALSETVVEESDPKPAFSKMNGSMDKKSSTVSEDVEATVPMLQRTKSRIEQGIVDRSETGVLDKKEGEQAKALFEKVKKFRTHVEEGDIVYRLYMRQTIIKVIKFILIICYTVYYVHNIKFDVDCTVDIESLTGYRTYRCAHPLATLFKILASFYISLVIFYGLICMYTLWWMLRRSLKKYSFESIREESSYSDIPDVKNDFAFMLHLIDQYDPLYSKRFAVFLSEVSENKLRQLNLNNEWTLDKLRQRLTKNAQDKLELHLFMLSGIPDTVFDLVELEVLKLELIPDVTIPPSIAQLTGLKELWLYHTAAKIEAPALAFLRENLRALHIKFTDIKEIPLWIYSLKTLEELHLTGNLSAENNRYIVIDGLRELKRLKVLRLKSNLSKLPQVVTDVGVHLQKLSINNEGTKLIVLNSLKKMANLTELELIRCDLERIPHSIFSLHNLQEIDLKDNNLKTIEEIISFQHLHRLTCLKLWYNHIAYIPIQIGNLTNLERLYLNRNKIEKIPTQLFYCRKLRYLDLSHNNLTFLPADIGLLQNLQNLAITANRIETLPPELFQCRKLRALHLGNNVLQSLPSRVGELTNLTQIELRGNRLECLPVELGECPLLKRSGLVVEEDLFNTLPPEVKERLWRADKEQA
# UniProt Q14524, sequence (whole entry, looked up): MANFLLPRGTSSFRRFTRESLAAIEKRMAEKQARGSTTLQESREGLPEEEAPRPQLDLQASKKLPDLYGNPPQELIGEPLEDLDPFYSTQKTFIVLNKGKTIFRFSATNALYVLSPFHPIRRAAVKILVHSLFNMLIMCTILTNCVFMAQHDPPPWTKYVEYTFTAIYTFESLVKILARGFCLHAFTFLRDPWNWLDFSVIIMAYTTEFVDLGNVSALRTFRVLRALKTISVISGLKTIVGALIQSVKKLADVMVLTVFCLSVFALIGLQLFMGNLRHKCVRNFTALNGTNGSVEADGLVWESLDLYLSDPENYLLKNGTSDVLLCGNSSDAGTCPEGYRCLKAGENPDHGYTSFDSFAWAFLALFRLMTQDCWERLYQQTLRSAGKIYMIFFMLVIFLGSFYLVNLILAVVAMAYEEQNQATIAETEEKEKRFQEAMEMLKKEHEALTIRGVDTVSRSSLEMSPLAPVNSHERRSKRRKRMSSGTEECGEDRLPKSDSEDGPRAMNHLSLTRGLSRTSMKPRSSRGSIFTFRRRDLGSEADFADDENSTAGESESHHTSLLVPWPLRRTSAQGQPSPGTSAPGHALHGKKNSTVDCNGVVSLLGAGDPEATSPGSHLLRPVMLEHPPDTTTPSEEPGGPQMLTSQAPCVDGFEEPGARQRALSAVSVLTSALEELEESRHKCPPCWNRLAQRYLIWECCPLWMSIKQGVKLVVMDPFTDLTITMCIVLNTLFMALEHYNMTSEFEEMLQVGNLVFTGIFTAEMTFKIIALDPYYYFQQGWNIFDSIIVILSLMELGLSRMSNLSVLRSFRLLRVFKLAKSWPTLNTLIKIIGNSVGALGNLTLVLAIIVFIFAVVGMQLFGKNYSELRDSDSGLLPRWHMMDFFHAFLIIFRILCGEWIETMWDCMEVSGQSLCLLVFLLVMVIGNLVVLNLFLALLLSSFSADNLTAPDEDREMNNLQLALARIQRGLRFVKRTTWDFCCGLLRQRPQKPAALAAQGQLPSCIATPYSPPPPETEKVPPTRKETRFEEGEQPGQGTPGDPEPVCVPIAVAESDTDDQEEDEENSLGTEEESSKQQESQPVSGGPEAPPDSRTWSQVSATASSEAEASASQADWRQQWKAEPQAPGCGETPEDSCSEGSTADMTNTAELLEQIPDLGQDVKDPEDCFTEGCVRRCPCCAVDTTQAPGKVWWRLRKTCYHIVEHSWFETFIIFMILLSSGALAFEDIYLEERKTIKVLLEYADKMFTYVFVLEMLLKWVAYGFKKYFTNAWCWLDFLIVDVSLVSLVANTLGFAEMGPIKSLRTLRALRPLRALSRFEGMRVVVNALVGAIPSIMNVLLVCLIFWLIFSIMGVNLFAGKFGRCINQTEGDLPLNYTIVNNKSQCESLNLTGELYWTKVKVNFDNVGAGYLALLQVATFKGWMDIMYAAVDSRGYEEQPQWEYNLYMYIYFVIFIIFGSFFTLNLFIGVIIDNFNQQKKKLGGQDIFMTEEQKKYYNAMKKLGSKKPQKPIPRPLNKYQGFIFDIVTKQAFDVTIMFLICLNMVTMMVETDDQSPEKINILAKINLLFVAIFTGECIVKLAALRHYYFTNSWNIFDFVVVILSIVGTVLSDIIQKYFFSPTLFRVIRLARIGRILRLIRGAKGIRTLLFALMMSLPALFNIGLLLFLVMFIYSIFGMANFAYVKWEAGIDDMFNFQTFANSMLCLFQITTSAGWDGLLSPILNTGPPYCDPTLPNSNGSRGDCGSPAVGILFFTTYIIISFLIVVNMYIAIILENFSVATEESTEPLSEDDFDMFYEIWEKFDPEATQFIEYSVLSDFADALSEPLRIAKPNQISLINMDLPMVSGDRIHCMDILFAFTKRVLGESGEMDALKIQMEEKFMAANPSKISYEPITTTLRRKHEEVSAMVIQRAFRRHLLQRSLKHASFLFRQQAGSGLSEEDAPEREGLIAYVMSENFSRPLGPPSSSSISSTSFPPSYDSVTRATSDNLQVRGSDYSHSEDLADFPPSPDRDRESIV
SMILES,target,assay,system,setting,inhibition
COc1cc(C(=O)NS(=O)(=O)c2ccccc2C)ccc1Cc1cn(C)c2ccc(NC(=O)OC3CCCC3)cc12,"LRRC8A/LRRC8C (Homo sapiens, UniProt Q8IWT6+Q8TDW0, L134K/L136K)","ion current, whole-cell patch clamp",HCT LRRC8-/- cells,"30 µM, +100 mV, L134K/L136K heteromers",88.2% and 99.2% and 86.9% and 77.9% and 95.5%
COc1cc2c(cc1OC)C(=O)C(CC1CCN(Cc3ccccc3)CC1)C2 (centres unmarked),HTR5A,radioligand binding,,"concentration not given, added: [3H]LSD",17.3%
O=C(CC1NCCCC1O)Cn1cnc2cc(Br)c(Cl)cc2c1=O (centres unmarked),"Bifunctional glutamate/proline--tRNA ligase, prolyl-tRNA synthetase domain (EPRS1, Homo sapiens, UniProt P07814)","prolyl-tRNA synthetase activity, inhibitor, [3H]Pro tRNA incorporation",,1 nM,no inhibition
Cc1cc(=O)oc2ccc(-c3cc(-c4ccc(Cl)cc4)nc(N)n3)c(O)c12,AMY2,"enzyme activity, inhibitor",,concentration not given,81.6 ± 1.23%
Cc1cc(OS(=O)(=O)Oc2ccc3ccccc3c2)cc(C(=O)NO)c1,HDAC11,,,10 µM,24%
COc1ccc2c(c1)CN(CCCN1CCN(c3ccccc3OC)CC1)C2=O,DRD4,radioligand binding,,"concentration not given, added: [3H]N-methylspiperone",97.3%
CN1CC(Oc2cnc(C#N)cc2-c2ccn3nc(NC(=O)C4CC4)cc3c2)C1,"ACVR1B (Homo sapiens, UniProt P36896)","inhibitor, KinaseProfiler panel",,1 µM,1%
CCc1oc2ccccc2c1C(=O)c1cc(Br)c(O)c(Br)c1,"SLC22A12 (Homo sapiens, UniProt Q96S37, I156A)",uric acid uptake,HEK293T transfected with SLC22A12 I156A,"0.5 µM, 10 min, 37 °C, mean, added: [14C]urate 200 µM",8.84%
O=C(/C=C/c1cccc(OS(=O)(=O)Oc2ccc(Oc3ccccc3)cc2)c1)NO,HDAC11,,,10 µM,8%
CCCCCCCCCCCCCC(=S)NCCCC[C@H](NC(=O)OCc1ccccc1)C(=O)N[C@@H](Cc1c[nH]c2ccccc12)C(=O)NC(C)C,"SIRT1 (Homo sapiens, UniProt Q96EB6)","enzyme activity, inhibitor",,10 µM,< 5%
CCS(=O)(=O)c1nc(S(=O)(=O)c2ccccc2Cl)c(N2CCN(C)C(=O)[C@H]2C)s1,HTR5A,,,10 µM,12.4%
O=C1N=C(N2CCCCN2)S/C1=C\c1ccc(F)cc1O,rat GABA receptor,radioligand binding,rat cerebral cortex,"10 µM, added: [3H]GABA",< 10%
Oc1cc2c(cc1O)CN(C(=S)NCCc1ccc(Cl)cc1)CCC2,"TRPV1 (Homo sapiens, UniProt Q8NER1)",,HEK293T,concentration not given,94.6% and 93.8%
O=C(NO)c1cc(F)cc(OS(=O)(=O)Oc2ccc(C(F)(F)F)cc2)c1,HDAC11,,,10 µM,48%
O=c1cc(-c2ccc(O)c(O)c2)oc2cc(O)cc(O)c12,AMY2,"enzyme activity, inhibitor",,"50 µM, added: CNP-G3 substrate",97.61 ± 0.13%
CN(c1ncccc1CNc1nc(Nc2ccc3c(c2)CC(=O)N3)ncc1C(F)(F)F)S(C)(=O)=O,PBK (human),kinase activity,,1 µM,34.5%
O=C1c2ccccc2CCCN1CCCCN1CCN(c2ccccn2)CC1,HTR2B,radioligand binding,,"concentration not given, added: [3H]LSD",83.3%
Cc1cc(O)c(-c2ccc([C@@H](C)CN(C)C)cc2)c2c1[nH]c(=O)c1sccc12,"Non-receptor tyrosine-protein kinase TYK2, JH2 pseudokinase domain (TYK2, Homo sapiens, UniProt P29597)","inhibitor, KiNativ probe labelling",cell lysate,0.1 µM,6.97%
O=C1c2ccccc2CCN1CCCCN1CCN(c2cccc(Cl)c2Cl)CC1,HTR5A,radioligand binding,,"concentration not given, added: [3H]LSD",89.9%
C#Cc1cc(-c2cc(Nc3nc(N[C@@H](C)c4ccc(F)cn4)ncc3Cl)n[nH]2)ccc1C=O,"PRKCI (Homo sapiens, UniProt P41743)","enzyme activity, inhibitor",,0.2 µM,31%
Cc1cc(=O)oc2ccc(-c3cc(-c4cccs4)nc(N)n3)c(O)c12,AMY2,"enzyme activity, inhibitor",,concentration not given,64.3 ± 1.24%
CCCCCCCCCCCCCCNC(=O)/C=C/c1ccc(O)c(O)c1,AMY2,enzyme activity,,"10 µM, added: α-glucosidase present",20.8 ± 1.41%
Cc1nn(-c2nc3c(F)cc(F)cc3s2)c(O)c1C(c1ccc(C(F)(F)F)cc1)c1c(C)nn(-c2nc3c(F)cc(F)cc3s2)c1O,"Cyclic GMP-AMP synthase, catalytic domain; with DNA (CGAS, Homo sapiens, UniProt Q8N884)","cGAS phase separation, inhibitor",,3.125 µM,32.5%
CC(C)c1noc2ncc(C(=O)c3ccccc3O)cc12,"KCNA3 (Homo sapiens, UniProt P22001)","ion current, whole-cell patch-clamp",,"10 µM, hKv1.3",10.8%
C[C@H]1O[C@H](O[C@H]2[C@H](O)[C@@H](O)[C@@H](O[C@H]3[C@H](O)[C@@H](O)C(O)O[C@@H]3CO)O[C@@H]2CO)[C@H](O)[C@@H](O)[C@@H]1N[C@H]1C=C(CO)[C@@H](O)[C@H](O)[C@H]1O (some centres unmarked),AMY2,enzyme activity,,"concentration not given, added: CNP-G3 substrate",88.1% and 87.7%
c1cncc(OC[C@H]2CN(CCN3CCc4ccccc43)CCO2)c1,HTR2B,radioligand binding,,"concentration not given, added: [3H]LSD",41.2%
O=C(NO)c1ccc(CN2CCCCc3ccccc32)c(F)c1,HTR5A,"radioligand binding, radioligand displacement",,"10 µM, mean of replicates",1.6%
NC/C(=C\F)COc1cccc(Cn2c(=S)[nH]c(=O)c3[nH]cnc32)c1,SCN5A,"peak current, inhibitor, patch clamp",human cells,"100 µM, pulse 9",37.2% and 20.3%
Cc1ccnc(C)c1OC[C@H]1CN(CCN2CCc3ccccc32)CCO1,DRD4,radioligand binding,,"concentration not given, added: [3H]N-methylspiperone",54.6%
OCCCN1CC[C@@H]2C[C@H]1c1cc(-c3ccc(C(F)(F)F)cc3)ccc12,HTR5A,"radioligand binding, PDSP competition binding",,10 µM,< 50%
O=c1c(O)c(-c2ccc(O)cc2)oc2c(Br)c(O)c(Br)c(O)c12,AMY2,"enzyme activity, inhibitor",,"50 µM, added: CNP-G3 substrate",98.2 ± 2.82%
Cc1ccc(C(=O)Nc2ccc3ccccc3c2)o1,SCN5A,"ion current, inhibitor, whole-cell patch clamp",,10 µM,9.9% and 15.5% and 17.3% and 14.7% and 16.8%
CC(C)c1cccc(OS(=O)(=O)Oc2cncc(C(=O)NO)c2)c1,HDAC11,,,10 µM,59%
Cc1cc2c(cc1N1C(=O)c3cccc4c(CCCO)ccc(c34)C1=O)n(C)c(=O)n2C (racemic),"Protein polybromo-1, BD5 (PBRM1, Homo sapiens, UniProt Q86U86)","binding, BROMOscan binding",,1000 nM,70%
Cc1cc(-c2ccnc3[nH]cc(F)c23)cc(F)c1[C@@]1(O)[C@H](C)CN(C(=O)CN)C[C@@H]1C,AMPK alpha1 and alpha2,"ATP probe binding, KiNativ, item: Lys1 site",HEK293T cell lysate,1 µM,30.5%
CC(C)c1cccc(OS(=O)(=O)Oc2cc(F)cc(C(=O)NO)c2)c1,HDAC11,,,10 µM,9%
O=C(CN1CCO[C@H](COc2cccnc2)C1)N1CCc2ccccc21,HTR2B,radioligand binding,,"concentration not given, added: [3H]LSD",58.8%
CC[C@@H]1[C@H](F)C(=O)N[C@@H]1COc1nccc2cc(C(N)=O)c(OC)cc12,"PRPF4B (Homo sapiens, UniProt Q13523)","ATP-site probe binding, ActivX profiling",THP-1 cell lysate,"0.01 mM, Lys2 site",15.8%
C=C1C(=O)O[C@@H]2C[C@@]3(C)CCCC(=C)[C@@H]3C[C@H]12,"TLR2 (Homo sapiens, UniProt O60603)","SEAP reporter gene, antagonist",HEK-Blue hTLR2,"10 µM, added: Pam3CSK4",> 90%
NC(=O)c1ncn([C@@H]2O[C@H](CO[P@@](=O)(O)O[P@](=O)(O)OP(=O)(O)O)[C@@H](O)[C@H]2O)n1,"Non-structural polyprotein pORF1, helicase domain (Hepatitis E virus genotype 1, UniProt P33424)","ATPase activity, inhibitor, colorimetric",,"3.5 µM, added: ATP 100 µM",22.3%
COc1ccc2c(c1)C(=O)N(CCCN1CCN(c3ccccc3OC)CC1)C2,DRD4,radioligand binding,,"concentration not given, added: [3H]N-methylspiperone",99.6%
COC(=O)[C@@H]1[C@H]2C[C@H]3c4[nH]c5ccccc5c4CCN3C[C@@H]2CC[C@@H]1O,rat α2-Adrenergic receptor,binding,,1 × 10 µM,90.9%
CC(C)(C)c1ccc(OS(=O)(=O)Oc2cc(F)cc(C(=O)NO)c2)cc1,HDAC11,,,5 µM,51%
O=C(Nc1cccc2c(=O)cc(-c3nnn[nH]3)oc12)c1ccc(OCCCCc2ccccc2)cc1,"Volume-regulated anion channel subunit LRRC8C, part LRRC8A IL1 chimera (LRRC8C, Homo sapiens, UniProt Q8TDW0, L136K)","ion current, inhibitor, whole-cell patch clamp",HCT LRRC8-/- cells,"1 µM, +100 mV",91.5% and 85.8% and 89.4% and 64.1% and 86.6%

# A few entries again:
SMILES,target,assay,system,setting,inhibition
CCCCCCCCCCCCCC(=S)NCCCC[C@H](NC(=O)OCc1ccccc1)C(=O)N[C@@H](Cc1c[nH]c2ccccc12)C(=O)NC(C)C,"SIRT1 (Homo sapiens, UniProt Q96EB6)","enzyme activity, inhibitor",,10 µM,< 5%
Cc1ccc(C(=O)Nc2ccc3ccccc3c2)o1,SCN5A,"ion current, inhibitor, whole-cell patch clamp",,10 µM,9.9% and 15.5% and 17.3% and 14.7% and 16.8%
OCCCN1CC[C@@H]2C[C@H]1c1cc(-c3ccc(C(F)(F)F)cc3)ccc12,HTR5A,"radioligand binding, PDSP competition binding",,10 µM,< 50%
Cc1cc2c(cc1N1C(=O)c3cccc4c(CCCO)ccc(c34)C1=O)n(C)c(=O)n2C (racemic),"Protein polybromo-1, BD5 (PBRM1, Homo sapiens, UniProt Q86U86)","binding, BROMOscan binding",,1000 nM,70%
COc1cc(C(=O)NS(=O)(=O)c2ccccc2C)ccc1Cc1cn(C)c2ccc(NC(=O)OC3CCCC3)cc12,"LRRC8A/LRRC8C (Homo sapiens, UniProt Q8IWT6+Q8TDW0, L134K/L136K)","ion current, whole-cell patch clamp",HCT LRRC8-/- cells,"30 µM, +100 mV, L134K/L136K heteromers",88.2% and 99.2% and 86.9% and 77.9% and 95.5%
Cc1cc(-c2ccnc3[nH]cc(F)c23)cc(F)c1[C@@]1(O)[C@H](C)CN(C(=O)CN)C[C@@H]1C,AMPK alpha1 and alpha2,"ATP probe binding, KiNativ, item: Lys1 site",HEK293T cell lysate,1 µM,30.5%
CCS(=O)(=O)c1nc(S(=O)(=O)c2ccccc2Cl)c(N2CCN(C)C(=O)[C@H]2C)s1,HTR5A,,,10 µM,12.4%
